Assay results pooled from the literature.
A part holds a random share of what one study measured. Positions count from the first letter of the parent shown.

Study 1 — technique: RNA Bind-n-Seq; molecule type: RNA; medium: in vitro; tested at: 100 nM; baseline: input RNA pool; reading: higher = stronger binding
Target: RING finger protein unkempt homolog, zinc fingers 1-6, SBP tag (UNK, Homo sapiens, UniProt Q9C0B0, residues 30-357)
Chain of UniProt Q9C0B0 (30-357, looked up): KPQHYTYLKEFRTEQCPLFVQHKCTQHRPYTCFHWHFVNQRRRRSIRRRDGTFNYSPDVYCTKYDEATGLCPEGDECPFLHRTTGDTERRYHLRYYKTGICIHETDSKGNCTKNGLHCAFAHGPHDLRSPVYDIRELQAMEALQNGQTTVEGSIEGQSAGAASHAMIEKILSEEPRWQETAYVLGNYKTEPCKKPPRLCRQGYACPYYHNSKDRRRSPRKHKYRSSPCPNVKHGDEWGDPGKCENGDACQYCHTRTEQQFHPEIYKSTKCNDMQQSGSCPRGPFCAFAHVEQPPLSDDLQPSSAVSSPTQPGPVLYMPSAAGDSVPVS
Setting: RNA with constant flanks, vertebrate orthologous sites, ends assumed
Constant ends, left off below: GGGAGUUCUACAGUCCGACGAUC … CAACAGAGGAUUGAGCAUCA
Sequence | bound/input enrichment [ratio]
UUUUUAAAUUUUUUUUUAAUUUAAGUUUUUCCUUUCAGGGGUAAAGUUUGCUUUACCAAAUAGUGAUUGUAACAAAUUGAUCUGUUUUGGAUGUUGCUAUAGUGACAUGCAGUUCUAUAU | 0.799
UCCAGGUAGGGGGUAACCAUUAACUUUUUUUAAUGAAGAAAUGAAAUGCUGAAAAUCAUAUGUUACUAAGUUUAGUUGGAUAAUUUAUACAAGCCUCUUUUAGGUAAUUCUAAAACUGAA | 0.807
ACUAGUGCUUAAGCUAUCAACAAUUCUAAAAUGCUAUUUAUUUGUCUUUGGUUUUGUACAUAGUAAUACCAACCUCAUAUUGUUGCUGAAAUUUUGUGGGUUUUUUUGUGUAUGUUUUUU | 0.982
UCUGUGUAGCAAUUAGAGUGGGUGCUCCCACUCAUCCUGUCCCAAGGAAGAAAGCUCAAAUAGGUGCUUUACACGCCUGAUUAUGCUGUUCUGUUUCUGUUUUCUAUUUUUACAUACACA | 0.689
GUCUUUUCUAGGUUGGAUCUACUGGAAAAGUCAUAGGAAUUGAUCACAUUAAGGAAUUAGUAGAUGACUCAAUAAAUAACGUCAGAAAGGAUGAUCCAUUGCUUUUGUCUUCAGGGAGAG | 0.815
GAGCUAAAGGAGUUAGCAUCUUUAUUUUUGUAUCAAAAAUAAAGGUUAUUUUGAAAUUAUUAGGAUUUUUACACAAUUCUGAAAUCUGUUGCUUUUGUAAACAAAUUGUUUGAUCUUAGU | 0.793
GAAGAUGGUGGUUGUACAUUAUUCAUUUAGAAAAUAUAAAAAUUCAUUUUGUUUUGAAGCUAGUUAUUAAACUGGAAUAGCAGUUAUACCCCCUGAGAAUGGGGCCCUUCCCUUGACAUU | 4.02
GUAAUGCAUUUUGUGACUUGGAUGUGGUCUGCACGGGAAGCUGCUGGCCUCUCCACAACGCAUAAAAUUUUUGUCUUUUUUUAAGAAGUUAAAACUGAAUUUAAUUUACUAAAACUCUAA | 0.471
AGUAGAUGUAUACGAAUAUUGAAGUUACAGAGGAUAUCCAAGGUGGUGAUAAAGUGUGUGUUGGUAGUUACUAAAAGAACUUUAGCUGUUACUGCCUUGUAUUUCUAUCCCUUGUUUUAG | 0.5
GCAUCACGGGUUACUCUUGUUUCUGUAGCAGAUAGAAAAUUUUGCAACAAAUGUAUACAUCUCGUUGAGCUGAAUAUAUUUUUAUUAGCCUGUAAAUAAAUAUACUCUUCUUCAUUGCAG | 0.718
ACAAGAUUUGGACCUUGGAGCAGAACCAGGAGUUAGAAGUAAAAAAAGCUGGUAAAAUUAUAGCCAUAUGCUGCUGCAUAACAGCAGUACUACCACUAGCAACUGUACCUGAAGUAUAAA | 0.423

Study 2 — target: FOS, bZIP domain (human); technique: DHFR protein complementation; medium: yeast; baseline: wild-type JUN-FOS pair; reading: higher = stronger binding
Setting: single substitutions, most at no-binding floor
Parent: JUN, bZIP domain (human); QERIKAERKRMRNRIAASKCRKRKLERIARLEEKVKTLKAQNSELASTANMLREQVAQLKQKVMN; partner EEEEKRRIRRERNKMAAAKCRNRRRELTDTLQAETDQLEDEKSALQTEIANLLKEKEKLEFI
Substitution | binding fitness [natural log]
L45C | -1.19
K39T | -0.281
A49D | -1.46
L52E | -0.995
K39D | -1.2
S47N | 0.0212
I28F | -0.275
R30L | 0.118
Q58H | -0.147
L45S | -1.13
L59W | -1.22
Q41E | 0.0605
L38N | -1.38
Q58A | -0.0448
L52S | -1.31
A57H | -0.113
K39L | -0.714
E32H | -0.226
N42S | -0.977
L59A | -0.831
E54C | -0.325

Study 3 — technique: universal PBM; molecule type: double-stranded DNA, one strand shown; medium: in vitro; tested at: not given; reading: higher = stronger binding
Target: Sal-like protein 4, full length isoform B (SALL4, Homo sapiens, UniProt Q9UJQ4-2, residues 1-616)
Setting: 8-mer, flanks averaged, mean of replicates
Sequence | E-score
CAAGGCGC | -0.145
GTGGACAA | 0.0866
TACATGCA | 0.16
AGACTCCT | -0.119
AAGATTGA | 0.187
AAGCGACT | 0.0498
CCCTTAGA | -0.0552
AGAAATGA | 0.281
ATCGATAG | 0.159
CGCCATGA | -0.22
AATCTAGT | 0.167
CCATTCCG | -0.16
GCTGGTGA | -0.158
GTGTGTCA | 0.13
CAGGATCC | -0.181
AGGAGCAC | -0.166
AACAGGTC | -0.11
ATGATAGG | 0.194
CTGCCCAA | -0.225
CAGGGTTA | -0.159

Study 4 — technique: RNA Bind-n-Seq; molecule type: RNA; medium: in vitro; tested at: 365 nM; baseline: no-protein control; reading: higher = stronger binding
Target: RNA binding protein fox-1 homolog 2, RRM domain, GST-SBP tag (RBFOX2, Homo sapiens, UniProt O43251-10, residues 100-194)
Setting: natural RNA segment, single round, ends assumed
Constant ends, left off below: GGGAGUUCUACAGUCCGACGAUC … UGGAAUUCUCGGGUGCCAA
Target sequence (chain): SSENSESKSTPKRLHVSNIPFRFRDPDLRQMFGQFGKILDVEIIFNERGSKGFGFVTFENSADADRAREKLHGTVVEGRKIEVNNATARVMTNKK
Sequence | RBNS enrichment (R)
AAGCAAGCGUUGGUCAGUGUUGUGUCCCAGUAGCUGGGAAGGGCACGGCUUUGCCCUGAUCUGUUCUGCAGGGCUAGGAGUGAGCCUGCCACUAACCCCUCUCCACCACU | 0.288
UCUCAAAACUACCAUUUGAAUUUCAAGAACUCUGCUGCAAAACCACUCUGAGAAUGUUUCCAAGUGAGAGUCACUUUCUUGACCCUCAAGAGAAGCUAGACGACACAGAA | 0.452
GGAACUCCUAAGGAAGUCACAGGUUCACACCGUGGGGAUUUUCAGGAUAGCAUGGAGACCAGAGAAUCCCGGUUCGGUUGUUCUCACUCGGUGAGCCUUGAGAAGGAAGA | 12.6
UGUUCAACUAUUUGCAAAGGUCAACCAAAUAGACCACAUGUUCGCAAAGUAUCAUCUGAGGAAAUUAAGUACCUUCUUAGCCCUCUCAGUCAUAAAUUUGAACAAAUUUU | 0.291
CUUCUUCCUCAGUGGAGAUACCACACAUGAGUGGAGAGAUACGUUAGAUAGCUUUGGUAAAUAUCUUUAAUAGAGGUGACUAUUGAACUGUUGAAUCUUGCAUUUGCACA | 0.796
AGCAACCUGGCCAGCCUGAGGUCUUCCAGGAGAUGCUGUCCAUGCUGGGAGAUCAGAGCAACAGCUACAACAAUGAAGAAUUCCCUGAUCUAACUAUGUUUCCCCCCUUU | 1.85
CCCUCCGUGGCCUCCCGUGAGUGCAUGCCUGUAGUGCACAGUGUCUCUACAGGUGUCUUCUGGGGGGCAGAACCAAUUGGAAGGAAGAAAGGGACCCCUCUCCAGUCCUG | 0.34
CCAGAAUCCUGACUCCAUUUGCAGACAGGAAUAUAUAUGUGUUGAGCCUGAUUUUUUUUCUGGUGUGUGUAAAAUACUUCCUAGGAAUACACUGGGCACUUUUGGAAAUA | 0.521
AGCCCUUAUUUGGAAAGUGUGAAAUUUGUAUUUGGAAAAGCUGCCUGGAGAGAAGAACUGUGUCCUUUACUGUAUUUCAACAGGACUCUUUUGGGGGAUCAAAAUUAAAA | 1.36
AUCAACAGGACUACACACUUGUAUAUACAUUCUUGAGAACACUGCAAUGUGAAAAUCACGUUUGCUAUUUAUAAACUUGUCCUUAGAUUAAUGUGUCUGGACAGAUUGUG | 0.374
GGAUGGAAAUCUGCCUUUCGUGGGACCAAACAGGACUCCUUGGACGAUUAGUUCAGGUUGGGUUUGGUUUUCUUCUUAAAGAGUUUAGUUUUCCUCUCCAGAGGGAUCAG | 0.366
ACCUGGAAGUUGCCCAUUUAACUAAUUAUUCUGUCCUGUGACUGUCAUCCUUCCAGUUGUUGUGUAGCGUAUGGAACCAUGUCAUCCUUUUACUAGGCAAAUACACAUAC | 0.673

Study 5 — technique: protein binding microarray; molecule type: double-stranded DNA, one strand shown; medium: in vitro; tested at: not given; baseline: not given; reading: higher = stronger binding
Target: Histone acetyltransferase KAT6A, both winged helices, GST fusion (KAT6A, Homo sapiens, UniProt Q92794, residues 1-181)
Setting: 8-mer, flanks averaged, mean of 2 arrays, mostly near background
Target sequence (chain): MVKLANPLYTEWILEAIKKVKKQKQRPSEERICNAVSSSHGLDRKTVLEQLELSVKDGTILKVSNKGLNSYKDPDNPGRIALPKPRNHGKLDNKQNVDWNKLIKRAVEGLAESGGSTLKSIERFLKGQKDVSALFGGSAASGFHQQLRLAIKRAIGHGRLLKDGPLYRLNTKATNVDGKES
Sequence | E-score
ATCAGATA | -0.0864
AAATTGGA | -0.206
CTGACGCA | 0.184
ACGTCTAT | -0.153
AGCTCTGA | -0.101
CATGCCCG | 0.285
ATAACTAA | -0.0139
AGTTTACG | 0.046
CCGATATA | 0.00553
GGGACTAC | 0.0271
CTGCTCAC | -0.182
GTCGAAGA | -0.0819
CTCATTCC | 0.0129
GTATCGGA | 0.121
CGGTGACA | -0.0102
ATGTAATG | -0.0259
CCTGAAAG | -0.165
CACCTTGC | -0.107
CCCCACAA | -0.168
GCACGGTA | 0.159
CACTGGAG | -0.165
TAAAGGGA | -0.0587
CGCGTAGA | 0.179
ACGTCTCC | -0.0378
CATAGCGA | 0.0179
